Assay results pooled from the literature.
A part holds a random share of what one study measured. Substitutions count along the parent as printed.

Study 1 — technique: protein binding microarray; molecule type: double-stranded DNA, one strand shown; matrix: in vitro; concentration: not given; reference: not given; reading: higher = stronger binding
Target: Histone acetyltransferase KAT6A, winged helix 1, GST fusion (KAT6A, Homo sapiens, UniProt Q92794, residues 1-85)
Notes: 8-mer, flanks averaged, mean of 2 arrays, mostly near background
Construct (chain): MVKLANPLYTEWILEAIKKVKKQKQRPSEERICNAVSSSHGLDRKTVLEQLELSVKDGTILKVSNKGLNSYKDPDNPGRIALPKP
For `CCACTAAA`, the E-score was -0.178.
`AACGTGTG` gave an E-score of -0.305.
`GGTGCATA` has an E-score of -0.117.
`AAATGGGA` gave an E-score of -0.289.
For `GACCGGAA`, the E-score was 0.152.
With `ACTCTGGA` the E-score was -0.155.
With `AGCCATTG` the E-score was -0.266.
`GCTCGGCA` gave an E-score of 0.187.
For `CAATGCGC`, the E-score was 0.381.
The E-score of `AGAGTAAC` is reported as -0.0436.
For `ACTCAACC`, the E-score was -0.107.
`ACGATGTA` has an E-score of -0.0712.
For `ATCGTAAC`, the E-score was 0.0588.
With `GGAGGGGA` the E-score was -0.0765.
For `CTGTGCTA`, the E-score was -0.0347.
`GTGATCAC` gave an E-score of 0.0994.

Study 2 — technique: Sort-seq; measured: YFP reporter; matrix: E. coli; notes: PhoQ-PhoP variant library; with: 10 µM Mg2+; reference: high Mg2+ state; reading: higher = stronger signaling
Molecule: PhoQ, residues 284 288 289 292 302 303 TAVSDG
The fold induction was 1.1 (PhoP, residues 12 14 15 18 19 LHTVL (Escherichia coli, UniProt P23836)).
PhoP, residues 12 14 15 18 19 NQCAL (Escherichia coli, UniProt P23836) — fold induction: 18.
The fold induction was 16.1 (PhoP, residues 12 14 15 18 19 TQAML (Escherichia coli, UniProt P23836)).

Study 3 — technique: DHFR PCA, deep sequencing; matrix: yeast; with: (+)-ABA 710 µM; reference: wild-type fitted maximum; reading: higher = stronger binding
Target: ABI1, truncated, D143A, DHFR fusion (Arabidopsis thaliana)
Notes: methotrexate growth selection, single substitutions
Starting sequence: PYL1, truncated, DHFR fusion (Arabidopsis thaliana); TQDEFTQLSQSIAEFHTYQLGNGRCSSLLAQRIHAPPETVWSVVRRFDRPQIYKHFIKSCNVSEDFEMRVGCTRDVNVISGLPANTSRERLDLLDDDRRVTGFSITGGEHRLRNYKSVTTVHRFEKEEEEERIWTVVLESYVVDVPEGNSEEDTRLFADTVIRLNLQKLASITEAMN; partner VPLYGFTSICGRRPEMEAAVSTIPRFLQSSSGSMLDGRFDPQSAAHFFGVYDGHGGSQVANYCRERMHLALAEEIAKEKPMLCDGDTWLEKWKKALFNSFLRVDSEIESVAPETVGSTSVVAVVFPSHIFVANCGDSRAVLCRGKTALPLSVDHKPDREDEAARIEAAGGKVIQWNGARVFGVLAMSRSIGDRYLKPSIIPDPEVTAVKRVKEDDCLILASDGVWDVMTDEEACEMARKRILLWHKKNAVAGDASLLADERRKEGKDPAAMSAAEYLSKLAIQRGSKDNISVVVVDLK
`D159K`: “relative binding score” 74.9%.
Under “relative binding score”, `Q51V` is recorded as 72.8%.
`I12H` — result for “relative binding score”: 82.3%.
Under “relative binding score”, `V76D` is recorded as -9.08%.
Under “relative binding score”, `A175T` is recorded as 96.5%.
`E64K` — result for “relative binding score”: 106%.
For `G107S`, “relative binding score” read 101%.
Under “relative binding score”, `I52C` is recorded as 109%.
`E64N` — result for “relative binding score”: 101%.

Study 4 — target: CCNF, cyclin fold, Cln2 fusion (human); technique: yeast growth competition, sequencing; matrix: yeast; notes: strong parent motif; reference: not given; reading: higher = stronger binding
Starting sequence: RBL1 docking peptide (human); GSAKRRLFGEDPP
For `LSAKRRLFGEDPP [G1L]`, “normalised enrichment score” read 9.32.
`GSAKRRLFGEDRP [P12R]` — result for “normalised enrichment score”: 6.52.
Under “normalised enrichment score”, `ISAKRRLFGEDPP [G1I]` is recorded as 11.1.
Under “normalised enrichment score”, `GSAKARLFGEDPP [R5A]` is recorded as 0.567.
`GSAKRRLFGEDPR [P13R]`: “normalised enrichment score” 6.94.
Under “normalised enrichment score”, `GSAKRRLQGEDPP [F8Q]` is recorded as 0.153.
`GSAKRLLFGEDPP [R6L]`: “normalised enrichment score” 2.86.
Under “normalised enrichment score”, `GSAKRRLFGEDTP [P12T]` is recorded as 7.86.
For `GSAKCRLFGEDPP [R5C]`, “normalised enrichment score” read 0.736.
Under “normalised enrichment score”, `GSAKRRLFGEDMP [P12M]` is recorded as 7.68.
`GSHKRRLFGEDPP [A3H]`: “normalised enrichment score” 2.64.
`GSAKRRLFGEHPP [D11H]`: “normalised enrichment score” 6.56.
For `GSAKVRLFGEDPP [R5V]`, “normalised enrichment score” read 0.714.
`GSRKRRLFGEDPP [A3R]` — result for “normalised enrichment score”: 1.79.
`GSAKRRLFGSDPP [E10S]` — result for “normalised enrichment score”: 7.3.
`GSAKRRLFGLDPP [E10L]` — result for “normalised enrichment score”: 7.16.
Under “normalised enrichment score”, `GSAKRHLFGEDPP [R6H]` is recorded as 3.52.
`GSAKRRLFGEDPM [P13M]`: “normalised enrichment score” 6.87.
For `GSAKRRLFGTDPP [E10T]`, “normalised enrichment score” read 6.41.
For `GSAKRRLFSEDPP [G9S]`, “normalised enrichment score” read 6.73.

Excerpt of the above (study 1):
For `CCACTAAA`, the E-score was -0.178.
`AACGTGTG` gave an E-score of -0.305.
`GGTGCATA` has an E-score of -0.117.
`AAATGGGA` gave an E-score of -0.289.
For `GACCGGAA`, the E-score was 0.152.
